Experimental data gathered from unrelated publications.
Lines come from different studies, so protocols differ. Values joined by “and” are separate records of one study, mostly repeats; a detail may differ. Numbers after ± are the reported error.
UniProt P16234, sequence (whole entry, looked up): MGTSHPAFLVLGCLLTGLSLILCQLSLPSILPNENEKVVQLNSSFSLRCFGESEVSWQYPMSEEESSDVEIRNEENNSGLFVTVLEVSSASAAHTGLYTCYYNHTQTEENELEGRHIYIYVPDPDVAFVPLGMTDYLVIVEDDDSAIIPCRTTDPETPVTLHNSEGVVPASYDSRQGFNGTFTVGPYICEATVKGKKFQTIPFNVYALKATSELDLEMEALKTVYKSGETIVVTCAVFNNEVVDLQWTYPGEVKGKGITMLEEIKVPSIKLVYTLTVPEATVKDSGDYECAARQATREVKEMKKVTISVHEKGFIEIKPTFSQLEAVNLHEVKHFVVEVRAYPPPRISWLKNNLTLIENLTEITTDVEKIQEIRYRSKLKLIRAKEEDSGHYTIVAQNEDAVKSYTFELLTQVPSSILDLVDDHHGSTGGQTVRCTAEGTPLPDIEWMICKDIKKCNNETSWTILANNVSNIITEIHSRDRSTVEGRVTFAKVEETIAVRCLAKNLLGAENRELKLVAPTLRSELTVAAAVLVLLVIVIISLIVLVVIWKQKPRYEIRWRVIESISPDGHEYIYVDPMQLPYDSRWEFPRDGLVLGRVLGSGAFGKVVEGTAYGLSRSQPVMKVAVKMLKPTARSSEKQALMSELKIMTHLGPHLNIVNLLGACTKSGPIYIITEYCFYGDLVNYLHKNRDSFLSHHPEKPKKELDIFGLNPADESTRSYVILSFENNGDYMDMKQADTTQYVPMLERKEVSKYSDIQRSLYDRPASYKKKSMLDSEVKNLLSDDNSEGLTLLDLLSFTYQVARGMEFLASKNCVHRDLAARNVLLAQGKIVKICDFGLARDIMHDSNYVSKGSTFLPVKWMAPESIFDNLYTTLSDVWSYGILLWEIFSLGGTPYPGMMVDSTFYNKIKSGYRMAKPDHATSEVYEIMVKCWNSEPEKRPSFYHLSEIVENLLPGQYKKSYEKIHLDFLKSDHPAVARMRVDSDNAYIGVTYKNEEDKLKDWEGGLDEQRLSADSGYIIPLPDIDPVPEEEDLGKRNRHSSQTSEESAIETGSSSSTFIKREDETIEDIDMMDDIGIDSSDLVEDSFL
UniProt P21802, sequence (whole entry, unmodified, looked up): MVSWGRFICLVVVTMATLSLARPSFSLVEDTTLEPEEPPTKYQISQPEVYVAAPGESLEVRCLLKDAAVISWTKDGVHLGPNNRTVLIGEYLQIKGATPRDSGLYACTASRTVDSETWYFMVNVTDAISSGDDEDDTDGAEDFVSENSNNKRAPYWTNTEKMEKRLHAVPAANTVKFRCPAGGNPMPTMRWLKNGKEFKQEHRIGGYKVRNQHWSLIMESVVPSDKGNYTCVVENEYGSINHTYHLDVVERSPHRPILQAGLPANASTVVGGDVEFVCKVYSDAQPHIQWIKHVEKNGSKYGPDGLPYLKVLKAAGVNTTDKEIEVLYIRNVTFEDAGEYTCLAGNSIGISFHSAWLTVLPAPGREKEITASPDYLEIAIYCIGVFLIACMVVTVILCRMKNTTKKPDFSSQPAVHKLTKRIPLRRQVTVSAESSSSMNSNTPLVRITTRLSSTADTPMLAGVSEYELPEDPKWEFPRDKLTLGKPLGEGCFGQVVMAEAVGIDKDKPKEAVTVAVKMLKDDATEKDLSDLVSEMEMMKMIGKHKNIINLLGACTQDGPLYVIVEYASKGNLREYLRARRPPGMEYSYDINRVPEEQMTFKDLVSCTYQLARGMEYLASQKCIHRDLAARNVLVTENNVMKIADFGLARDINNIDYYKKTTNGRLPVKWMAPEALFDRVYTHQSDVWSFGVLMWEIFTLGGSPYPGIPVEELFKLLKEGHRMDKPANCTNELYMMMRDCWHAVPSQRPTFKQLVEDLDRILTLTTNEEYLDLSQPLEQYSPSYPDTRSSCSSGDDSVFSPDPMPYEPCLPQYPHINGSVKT

| SMILES | tested on | test | system | conditions | scale | quantity | value |
| --- | --- | --- | --- | --- | --- | --- | --- |
| Cc1ccc2[nH]c3c(c2c1)CCCC3NCCC12CC3CC(CC(C3)C1)C2 (stereo not drawn) | A549 | – | – | 50 µM, 23 h | – | non-viable cells | 78.2 ± 20.4% |
| CC1OCC2OC(OC3C(N)CC(N)C(O)C3OC3OC(CO)C(OC4OC(CN)C(O)C(O)C4N)C3O)C(N)C(O)C2O1 (stereo not drawn) | NIH 3T3 | – | – | 72 h, 10% fetal bovine serum | – | 25% lethal concentration | > 1200 µM |
| O=S(=O)(c1ccc(-c2ccc3ncnc(Nc4ccc(OCc5cccc(F)c5)c(Cl)c4)c3c2)cc1)N1CCNCC1 | NIH 3T3 | PrestoBlue | – | 96 h | – | TC50 | 42 µM |
| CNC(=O)C[C@H](Cc1ccc(F)cc1)NC(=O)[C@@H](Cc1ccc(Cl)cc1Cl)NC(=O)[C@H](N)Cc1ccccc1[N+](=O)[O-] | Huh-7-ACE2 | CellTiter-Glo | – | 0.00153 µM, 48 h, unit not given | baseline: DMSO | viability | 1.17 and 0.96 and 1.11 |
| O=C(O)c1cccc(CP(=O)(O)O)n1 | Caco-2 | lysosome integrity, neutral red uptake | – | 24 h, without 10% FBS | – | EC50 | > 250 µg/mL |
| O=C1NC(=O)c2c1c1cc(F)c[n+]3c1c1c2c2cc(O)ccc2[n]1[Ru-4]312([N]=C=S)[S+]3CC[S+]1CC[S+]2CC3 (stereo not drawn) | FGFR2 (Homo sapiens, UniProt P21802, N549H) | enzyme activity | – | 100 nM, human enzyme, with: 10 µM ATP | baseline: untreated | remaining activity | 55% |
| CNC(=O)C[C@H](Cc1ccc(F)cc1)NC(=O)[C@@H](Cc1ccc(Cl)cc1Cl)NC(=O)[C@H](N)Cc1ccccc1C#N | Huh-7-ACE2 | CellTiter-Glo | – | 0.000381 µM, 48 h, unit not given | baseline: DMSO | viability | 0.977 and 0.926 and 0.937 |
| C#Cc1ccc(C[C@@H]2NC(=O)CSCCNC(=O)[C@H](Cc3ccccc3)N(C)C(=O)[C@H](CC(C)C)NC(=O)[C@H](Cc3cccc4ccccc34)NC(=O)[C@H](CC(C)C)NC(=O)[C@H](C(C)C)NC(=O)[C@@H]3CCCN3C(=O)[C@H](C(C)C)NC2=O)cc1 | LLC-PK1 | – | Caco-2 | – | – | Papp A→B | 0.02 ×10⁻⁶ cm/s |
| C[C@@H]1O[C@@H](O[C@@H]2[C@@H](O)[C@H](O)[C@@H](CO)O[C@H]2c2c(O)cc(O)c3c(=O)cc(-c4ccc(O)cc4)oc23)[C@H](O)[C@H](O)[C@H]1O | Caco-2 | CCK-8 | – | 5 µM, 24 h | – | viability | 106% |
| O=C1NC2(CC2)COc2ncc(F)cc2[C@H]2COCCN2c2ccn3ncc1c3n2 | – | – | Sprague-Dawley rat, female, thymus | oral, 2.5 mg/kg/day, 4 weeks dosing, end of recovery | – | organ-to-body weight ratio | 0.134 ± 0.018% |
| COc1ccccc1-c1n[nH]c2nc(NC3CCN(C(=O)Cc4ccc(F)cc4F)CC3)ncc12 | – | bead binding, competition bead pull-down, measured: LINJ.30.3230 | Leishmania donovani axenic amastigote extract | 10 µM | baseline: vehicle | relative abundance | 1.05 |
| CNC(=O)C[C@H](Cc1ccncc1)NC(=O)[C@@H](Cc1cccc(Br)c1)NC(=O)[C@@H](N)Cc1ccsc1 | Huh-7-ACE2 | CellTiter-Glo | – | 0.0122 µM, 48 h, unit not given | baseline: DMSO | viability | 0.928 and 1.1 and 0.894 |
| Cc1cc(-c2ccc3ccccc3c2)nnc1NCCN1CCN(C)CC1 | Caco-2 | Caco-2 permeability | apical to basolateral | 5 µM, 0.5 h | – | recovery | 50.5% |
| CC(C)(C)C(=O)OCOP(=O)(OCOC(=O)C(C)(C)C)C1CCCN(O)C1=O (stereo not drawn) | SK-MEL-5 | – | – | – | – | GI50 | 0.324 µM |
| CC(C)[C@H]1NC(=O)C[C@H]2/C=C/CCSSC[C@@H](NC1=O)C(=O)N[C@H](Cc1cccc3ccccc13)C(=O)NCC(=O)O2 | PDGFRA (Homo sapiens, UniProt P16234) | enzyme activity, inhibitor | – | 10 µM | – | inhibition | 8.9% |
| CNC(=O)C[C@H](Cc1ccncc1)NC(=O)[C@@H](Cc1cccc(Br)c1)NC(=O)[C@@H](N)Cc1cccc(F)c1 | Huh-7-ACE2 | CellTiter-Glo | – | 3.125 µM, 48 h, unit not given | baseline: DMSO | viability | 1.05 and 0.981 and 0.952 |
| C#Cc1ccc(C[C@H]2C(=O)N[C@@H](CC(C)C)C(=O)N(C)[C@@H](CC(C)C)C(=O)NCC(=O)N3CCC[C@@H]3C(=O)N(C)[C@@H](Cc3ccccc3)C(=O)N[C@@H](CC(C)C)C(=O)N(C)[C@@H](C)C(=O)N[C@@H](CC(C)C)C(=O)N3CCC[C@@H]3C(=O)N2C)cc1 | LLC-PK1 | – | Caco-2 | – | – | Papp A→B | 6.84 ×10⁻⁶ cm/s |
| CC[C@H](C)[C@H](NC(=O)[C@H](CO)NC(=O)[C@H](Cc1ccc(O)cc1)NC(=O)[C@H](Cc1ccc(O)cc1)NC(=O)[C@H](CC(N)=O)NC(=O)CNC(=O)[C@H](CO)NC(=O)[C@H](Cc1ccc(O)cc1)NC(=O)[C@H](CO)NC(=O)[C@H](CO)NC(=O)[C@H](CC(N)=O)NC(=O)COCCOCCNC(=O)CN1CCN(CC(=O)O)CCN(CC(=O)O)CCN(CC(=O)O)CC1)C(=O)N[C@@H](CC(C)C)C(N)=O [copper-64 labelled] | – | dynamic PET | tamoxifen-induced PDAC mouse model, pancreas | 22.5 min, CLDN4-expressing tumours | – | maximum pancreas uptake | 16.3 %IA/cc |

Excerpt of the above:
| SMILES | tested on | test | system | conditions | scale | quantity | value |
| --- | --- | --- | --- | --- | --- | --- | --- |
| O=C1NC(=O)c2c1c1cc(F)c[n+]3c1c1c2c2cc(O)ccc2[n]1[Ru-4]312([N]=C=S)[S+]3CC[S+]1CC[S+]2CC3 (stereo not drawn) | FGFR2 (Homo sapiens, UniProt P21802, N549H) | enzyme activity | – | 100 nM, human enzyme, with: 10 µM ATP | baseline: untreated | remaining activity | 55% |
| Cc1ccc2[nH]c3c(c2c1)CCCC3NCCC12CC3CC(CC(C3)C1)C2 (stereo not drawn) | A549 | – | – | 50 µM, 23 h | – | non-viable cells | 78.2 ± 20.4% |
